Assay results from different studies.
Lines come from different studies, so protocols differ. Several values in a cell are separate wells, animals, samples, runs or records. ± marks the error that the study gave.
Alpha-amylase: Alpha-amylase (Bos taurus, UniProt Q3MHH8)
FFAR4: Free fatty acid receptor 4 (FFAR4, Homo sapiens, UniProt Q5NUL3)
Sequence of UniProt Q5NUL3 (whole entry, looked up): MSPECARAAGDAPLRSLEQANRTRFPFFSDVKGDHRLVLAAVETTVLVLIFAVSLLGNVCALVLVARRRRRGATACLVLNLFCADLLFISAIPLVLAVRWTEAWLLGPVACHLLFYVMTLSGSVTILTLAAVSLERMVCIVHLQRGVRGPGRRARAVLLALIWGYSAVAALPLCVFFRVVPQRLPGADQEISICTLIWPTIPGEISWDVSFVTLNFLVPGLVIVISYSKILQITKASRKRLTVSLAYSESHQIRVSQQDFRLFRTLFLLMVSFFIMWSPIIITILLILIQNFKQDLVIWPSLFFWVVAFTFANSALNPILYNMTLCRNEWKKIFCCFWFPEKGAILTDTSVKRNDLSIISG
CAMKK2: Calcium/calmodulin-dependent protein kinase kinase 2 (CAMKK2, Homo sapiens, UniProt Q96RR4)
Sequence of UniProt Q96RR4 (whole entry, looked up): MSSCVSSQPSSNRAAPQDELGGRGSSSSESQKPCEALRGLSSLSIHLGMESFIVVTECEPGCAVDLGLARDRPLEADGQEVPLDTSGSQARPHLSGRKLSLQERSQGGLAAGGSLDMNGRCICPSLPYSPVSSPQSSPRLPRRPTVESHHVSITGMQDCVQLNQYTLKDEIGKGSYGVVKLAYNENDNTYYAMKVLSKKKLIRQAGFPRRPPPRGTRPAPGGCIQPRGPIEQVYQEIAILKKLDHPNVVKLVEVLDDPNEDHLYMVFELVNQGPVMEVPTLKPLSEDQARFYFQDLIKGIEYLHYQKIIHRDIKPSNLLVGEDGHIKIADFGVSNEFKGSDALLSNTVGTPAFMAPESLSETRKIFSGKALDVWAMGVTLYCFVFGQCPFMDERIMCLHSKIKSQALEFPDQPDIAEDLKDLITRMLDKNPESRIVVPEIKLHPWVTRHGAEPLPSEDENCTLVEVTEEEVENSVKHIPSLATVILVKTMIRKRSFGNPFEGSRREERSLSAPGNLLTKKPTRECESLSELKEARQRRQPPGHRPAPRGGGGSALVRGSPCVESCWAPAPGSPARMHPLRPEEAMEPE
Trypanothione synthetase: Trypanothione synthetase (Trypanosoma brucei brucei, UniProt Q8IEX1)
Sequence of UniProt P61073 (whole entry, looked up): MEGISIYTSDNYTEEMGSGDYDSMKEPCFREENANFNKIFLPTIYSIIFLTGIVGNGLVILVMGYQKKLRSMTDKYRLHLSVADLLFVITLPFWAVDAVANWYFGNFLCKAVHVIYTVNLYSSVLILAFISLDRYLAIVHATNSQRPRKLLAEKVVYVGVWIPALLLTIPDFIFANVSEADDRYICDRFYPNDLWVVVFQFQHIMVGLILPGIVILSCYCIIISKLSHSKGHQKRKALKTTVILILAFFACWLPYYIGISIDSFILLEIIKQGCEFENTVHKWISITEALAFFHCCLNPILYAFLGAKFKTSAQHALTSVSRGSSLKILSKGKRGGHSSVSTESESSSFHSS
Sequence of UniProt P21397 (whole entry, looked up): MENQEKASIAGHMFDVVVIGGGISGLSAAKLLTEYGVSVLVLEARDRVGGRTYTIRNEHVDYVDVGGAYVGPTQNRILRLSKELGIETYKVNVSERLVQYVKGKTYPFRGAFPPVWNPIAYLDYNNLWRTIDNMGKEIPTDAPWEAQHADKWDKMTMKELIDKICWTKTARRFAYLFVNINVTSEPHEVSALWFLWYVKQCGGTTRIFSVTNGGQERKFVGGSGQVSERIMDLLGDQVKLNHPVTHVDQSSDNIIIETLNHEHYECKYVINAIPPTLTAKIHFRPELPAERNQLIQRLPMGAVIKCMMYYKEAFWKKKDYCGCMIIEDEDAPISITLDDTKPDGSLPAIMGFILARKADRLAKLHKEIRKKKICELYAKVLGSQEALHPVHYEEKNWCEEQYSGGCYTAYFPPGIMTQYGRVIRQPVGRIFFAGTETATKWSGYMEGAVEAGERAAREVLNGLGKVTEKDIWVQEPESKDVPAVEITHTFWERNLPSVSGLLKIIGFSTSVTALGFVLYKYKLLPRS
Sequence of UniProt Q13464 (whole entry, looked up): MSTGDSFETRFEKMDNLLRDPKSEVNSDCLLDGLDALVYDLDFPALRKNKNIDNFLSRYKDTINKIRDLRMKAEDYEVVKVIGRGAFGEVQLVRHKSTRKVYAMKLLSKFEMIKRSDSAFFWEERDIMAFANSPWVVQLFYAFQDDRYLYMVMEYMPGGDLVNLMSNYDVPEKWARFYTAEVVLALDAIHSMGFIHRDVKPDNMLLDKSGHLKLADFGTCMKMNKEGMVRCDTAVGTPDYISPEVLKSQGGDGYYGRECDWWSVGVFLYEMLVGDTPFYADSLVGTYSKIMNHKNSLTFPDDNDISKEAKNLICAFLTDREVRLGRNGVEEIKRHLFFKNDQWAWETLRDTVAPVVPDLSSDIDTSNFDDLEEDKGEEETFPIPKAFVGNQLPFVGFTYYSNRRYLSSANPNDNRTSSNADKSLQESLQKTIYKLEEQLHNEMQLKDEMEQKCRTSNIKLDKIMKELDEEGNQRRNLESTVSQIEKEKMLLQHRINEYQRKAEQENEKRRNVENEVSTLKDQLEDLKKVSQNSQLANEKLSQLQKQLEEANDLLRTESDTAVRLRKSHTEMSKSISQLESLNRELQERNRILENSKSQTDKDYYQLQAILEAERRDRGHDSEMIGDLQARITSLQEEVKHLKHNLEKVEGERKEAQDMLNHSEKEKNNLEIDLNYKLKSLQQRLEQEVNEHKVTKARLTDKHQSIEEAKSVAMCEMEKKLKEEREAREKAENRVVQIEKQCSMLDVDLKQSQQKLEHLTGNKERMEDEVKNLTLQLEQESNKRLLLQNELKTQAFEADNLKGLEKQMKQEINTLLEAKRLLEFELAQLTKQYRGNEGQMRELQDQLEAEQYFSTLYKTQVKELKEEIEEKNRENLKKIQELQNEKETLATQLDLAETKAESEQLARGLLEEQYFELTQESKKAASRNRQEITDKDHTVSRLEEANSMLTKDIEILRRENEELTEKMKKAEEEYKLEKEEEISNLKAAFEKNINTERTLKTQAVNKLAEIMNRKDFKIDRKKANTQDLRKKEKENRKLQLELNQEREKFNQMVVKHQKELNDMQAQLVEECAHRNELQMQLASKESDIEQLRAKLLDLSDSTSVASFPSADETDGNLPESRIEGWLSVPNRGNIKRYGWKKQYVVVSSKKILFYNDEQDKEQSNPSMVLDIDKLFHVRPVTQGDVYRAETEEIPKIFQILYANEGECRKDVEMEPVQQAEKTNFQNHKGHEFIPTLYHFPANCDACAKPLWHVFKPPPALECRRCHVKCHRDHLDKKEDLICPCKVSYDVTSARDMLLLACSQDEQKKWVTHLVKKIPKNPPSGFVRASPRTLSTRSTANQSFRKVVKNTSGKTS
Sequence of UniProt P06239 (whole entry, looked up): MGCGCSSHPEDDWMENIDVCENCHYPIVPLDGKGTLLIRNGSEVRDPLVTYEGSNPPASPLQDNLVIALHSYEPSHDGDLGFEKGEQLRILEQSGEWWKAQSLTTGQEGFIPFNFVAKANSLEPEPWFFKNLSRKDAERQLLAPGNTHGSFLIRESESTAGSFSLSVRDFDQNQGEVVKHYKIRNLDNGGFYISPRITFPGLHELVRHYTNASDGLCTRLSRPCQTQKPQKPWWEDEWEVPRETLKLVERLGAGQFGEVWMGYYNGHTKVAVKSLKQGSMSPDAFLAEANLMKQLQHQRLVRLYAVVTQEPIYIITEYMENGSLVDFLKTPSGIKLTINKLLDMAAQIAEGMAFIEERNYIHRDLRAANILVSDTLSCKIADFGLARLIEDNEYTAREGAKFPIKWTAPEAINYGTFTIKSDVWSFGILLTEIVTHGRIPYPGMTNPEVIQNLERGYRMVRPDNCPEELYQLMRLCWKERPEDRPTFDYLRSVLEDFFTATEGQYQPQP
Sequence of UniProt P21396 (whole entry, looked up): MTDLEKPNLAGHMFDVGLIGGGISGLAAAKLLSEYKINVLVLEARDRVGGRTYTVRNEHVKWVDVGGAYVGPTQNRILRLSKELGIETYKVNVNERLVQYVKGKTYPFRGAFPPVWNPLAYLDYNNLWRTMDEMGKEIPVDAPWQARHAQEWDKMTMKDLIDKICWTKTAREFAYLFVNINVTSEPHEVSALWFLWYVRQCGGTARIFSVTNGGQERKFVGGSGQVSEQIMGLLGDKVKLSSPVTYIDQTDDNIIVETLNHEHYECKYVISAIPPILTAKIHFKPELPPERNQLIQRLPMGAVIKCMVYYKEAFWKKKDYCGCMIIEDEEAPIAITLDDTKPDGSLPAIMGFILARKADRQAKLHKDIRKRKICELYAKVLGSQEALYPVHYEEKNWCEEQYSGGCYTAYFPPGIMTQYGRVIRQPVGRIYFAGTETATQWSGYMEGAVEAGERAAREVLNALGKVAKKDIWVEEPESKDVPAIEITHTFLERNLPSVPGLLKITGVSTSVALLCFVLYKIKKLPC
Sequence of UniProt Q70EK9 (whole entry, looked up): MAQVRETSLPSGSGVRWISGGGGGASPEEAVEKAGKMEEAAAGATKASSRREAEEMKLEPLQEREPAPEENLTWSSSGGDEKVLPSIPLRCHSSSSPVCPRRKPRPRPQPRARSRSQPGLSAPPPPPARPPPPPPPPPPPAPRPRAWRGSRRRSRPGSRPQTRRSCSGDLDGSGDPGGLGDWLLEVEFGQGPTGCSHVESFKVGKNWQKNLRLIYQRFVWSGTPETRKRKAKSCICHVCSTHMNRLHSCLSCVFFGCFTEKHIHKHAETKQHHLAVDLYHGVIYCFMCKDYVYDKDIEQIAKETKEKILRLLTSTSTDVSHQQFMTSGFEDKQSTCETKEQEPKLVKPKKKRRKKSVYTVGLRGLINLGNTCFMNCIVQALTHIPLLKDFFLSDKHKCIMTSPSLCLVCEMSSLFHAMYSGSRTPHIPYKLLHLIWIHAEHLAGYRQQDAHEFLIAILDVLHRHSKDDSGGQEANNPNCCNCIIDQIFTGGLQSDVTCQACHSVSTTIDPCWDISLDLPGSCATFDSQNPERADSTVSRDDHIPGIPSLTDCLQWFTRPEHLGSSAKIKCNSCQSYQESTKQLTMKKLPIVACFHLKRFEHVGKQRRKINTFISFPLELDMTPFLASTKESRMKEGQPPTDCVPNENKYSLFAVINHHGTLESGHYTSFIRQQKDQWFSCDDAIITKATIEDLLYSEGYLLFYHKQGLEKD

Structure (SMILES) | target | assay | test system | setting | how to read | inhibition
CC1=NNC(=S)NC(=O)C1/N=N/c1ccc(S(N)(=O)=O)cc1 (stereo not shown) | Alpha-amylase | enzyme activity, inhibitor, glucose oxidase |  | 50 µg/mL, added: dextrin |  | 13.8%
O=Nc1c(NCCc2ccccc2)[nH]c(=O)[nH]c1=O | FFAR4 | antagonist, β-arrestin recruitment | CHO cells | 10 µM |  | 19 ± 8%
CC1=NN(c2cccc(C)c2)C(=O)C1=NNc1ccc(S(N)(=O)=O)cc1 | Alpha-amylase | enzyme activity, inhibitor, glucose oxidase |  | 50 µg/mL, added: dextrin |  | 17.3%
S=C(NCCc1ccccc1)NC1CCC(NC(=S)NCCc2ccccc2)CC1 (stereo not shown) | C-X-C chemokine receptor type 4 (CXCR4, Homo sapiens, UniProt P61073) | arrestin recruitment, antagonist, DiscoverX arrestin |  | 30 µM | reference: control | -0.91% and -1.3%
CC[C@@H]1[C@H](F)C(=O)N[C@@H]1COc1nccc2cc(C(N)=O)c(OC)cc12 | CAMKK2 | ATP-site probe binding, ActivX profiling | THP-1 cell lysate | 0.01 mM, Lys1 site |  | -0.8%
COc1ccc(F)cc1C(=O)NCc1ccc(-c2nn([C@@H](C)C(F)(F)F)c(N)c2C(N)=O)cc1 | Tyrosine-protein kinase BTK (BTK, Homo sapiens, UniProt Q06187) | probe binding, competitive chemoproteomics | human PBMCs | 0.1 µM |  | > 90%
O=C(CN1C(=O)Cc2c([nH]c3ccc(Br)cc23)-c2ccc(Cl)cc21)N1CCCC1 | Trypanothione synthetase | enzyme activity, inhibitor, BIOMOL Green |  | 30 µM |  | 9.8 ± 2.8%
O=C(O)CCCCCNc1cc(=O)[nH]c(=O)[nH]1 | FFAR4 | antagonist, β-arrestin recruitment | CHO cells | 10 µM, added: 4 µM TUG-891 |  | 16 ± 2%
CN(C(=O)n1cnc(-c2ccc[n+]([O-])c2)c1)C1CCCCC1 | Amine oxidase [flavin-containing] A (Maoa, Rattus norvegicus, UniProt P21396) |  |  | 10 µM |  | 1.02%
O=C(Nc1cccc2c(=O)cc(-c3nnn[nH]3)oc12)c1ccc(OCCCCc2ccccc2)cc1 | Volume-regulated anion channel subunit LRRC8C, part LRRC8A IL1 chimera (LRRC8C, Homo sapiens, UniProt Q8TDW0, L136K) | ion current, inhibitor, whole-cell patch clamp | HCT LRRC8-/- cells | 1 µM, -100 mV |  | 66.1% and 51.7% and 67.5% and 71.7% and 70.7%
CCN(CC)CCNC(=O)CN1C(=O)Cc2c([nH]c3ccc(Br)cc23)-c2ccc(Cl)cc21 | Trypanothione synthetase | enzyme activity, inhibitor, BIOMOL Green |  | 30 µM |  | 16 ± 5.6%
Cn1cnc(Br)c1C1=CN(c2ncnc3[nH]cnc23)CCS1 | Protein kinase C gamma type (PRKCG, Homo sapiens, UniProt P05129) | enzyme activity |  | 2 µM |  | 91.7%
CC1=NOC(=O)C1=NNc1ccc(S(N)(=O)=O)cc1 | Alpha-amylase | enzyme activity, inhibitor, glucose oxidase |  | 500 µg/mL, added: dextrin |  | 36.3%
[2H]c1cc(C)c(NC(=O)c2cnc(Nc3cc(N4CCCCC4)nc(C)n3)s2)c(Cl)c1 | Tyrosine-protein kinase Lck (LCK, Homo sapiens, UniProt P06239) |  |  | 0.01 µM |  | > 90%
COc1ccc(CCNc2cc(=O)[nH]c(=O)[nH]2)cc1OC | FFAR4 | antagonist, β-arrestin recruitment | CHO cells | 10 µM |  | -1 ± 8%
Cn1cc(-c2cnc3ccc(NC(=O)Nc4ccc(F)c(Br)c4)cc3n2)cn1 | Mitogen-activated protein kinase kinase kinase 12 (MAP3K12, Homo sapiens, UniProt Q12852) | kinase binding, KiNativ profiling, measured: Lys2 peptide | PANC-1 lysate | 1.25 µM |  | 11%
CCN1CCN(Cc2ccc(NC(=O)c3ccc(C)c(/C=C/c4cnc5[nH]ccc5c4OC)c3)cc2C(F)(F)F)CC1 | CAMKK2 |  | A-375 | 0.05 µM |  | -23.4%

Structure (SMILES) | target | assay | test system | setting | how to read | inhibition
O=c1cc(N2CCC(Cc3ccccc3)CC2)[nH]c(=O)[nH]1 | FFAR4 | antagonist, β-arrestin recruitment | CHO cells | 10 µM, added: 4 µM TUG-891 |  | -13 ± 7%
CC1=NN(c2ccccc2)C(=O)C1=NNc1ccc(S(N)(=O)=O)cc1 | Alpha-amylase | enzyme activity, inhibitor, glucose oxidase |  | 10 µg/mL, added: dextrin |  | 22.649 ± 0.000136%
O=C(O)C1=CC(=C(c2ccc(O)c(C(=O)O)c2)c2ccc(O)c(C(=O)O)c2)C=CC1=O | Catenin beta-1, armadillo repeat domain (Mus musculus, UniProt Q02248) | luminescence |  | 20 µM |  | 30%
Cc1ccc(C(=O)Nc2ccc3ccccc3c2)o1 | Voltage-gated hydrogen channel 1 (HVCN1, Homo sapiens, UniProt Q96D96) | ion current, whole-cell patch-clamp |  | 10 µM, hHv1 |  | 6.87%
CC(C)C[C@H](NC(=O)[C@@H](NC(=O)[C@@H](N)Cc1ccccc1)C(C)C)C(=O)N[C@@H](CC(=O)O)C(=O)O | Amine oxidase [flavin-containing] A (MAOA, Homo sapiens, UniProt P21397) | inhibitor, fluorometric |  | 410 µM |  | 3.14%
COc1cc(C(=O)OCCCN2CCCN(CCCOC(=O)c3cc(OC)c(OC)c(OC)c3)CC2)cc(OC)c1OC | Equilibrative nucleoside transporter 2 (Homo sapiens, UniProt Q14542) | nucleoside transport, inhibitor | MDCKII cells expressing ENT2 | 79.4 µM, added: adenosine |  | 95.6% and 95.8%
O=c1cc(NCCc2ccc(Cl)cc2Cl)[nH]c(=O)[nH]1 | FFAR4 | antagonist, β-arrestin recruitment | CHO cells | 10 µM |  | 6 ± 6%
CC1=NCCNC(=O)C1=NNc1ccc(S(N)(=O)=O)cc1 | Alpha-amylase | enzyme activity, inhibitor, glucose oxidase |  | 200 µg/mL, added: dextrin |  | 14%
O=C1C[C@@H](c2ccc(O)cc2)Oc2cc(O)cc(O)c21 | Ubiquitin carboxyl-terminal hydrolase 51 (USP51, Homo sapiens, UniProt Q70EK9) | inhibitor |  | 1 µM, 1 h preincubation, added: Ub-AMC 250 nM |  | 69%
CC(C)CCCCCNc1cc(=O)[nH]c(=O)[nH]1 | FFAR4 | antagonist, β-arrestin recruitment | CHO cells | 10 µM, added: 4 µM TUG-891 |  | 21 ± 5%
NNC(=O)CN1C(=O)Cc2c([nH]c3ccc(Br)cc23)-c2ccc(Cl)cc21 | Trypanothione synthetase | enzyme activity, inhibitor, BIOMOL Green |  | 30 µM |  | 8.3 ± 5.8%
Cc1cc(-c2ccnc3[nH]cc(F)c23)cc(F)c1[C@@]1(O)[C@H](C)CN(C2CCS(=O)(=O)CC2)C[C@@H]1C | Rho-associated protein kinase 1 (ROCK1, Homo sapiens, UniProt Q13464) | ATP probe binding, KiNativ | HEK293T cell lysate | 0.1 µM |  | -6.6%
CC1=NN(c2ccccn2)C(=O)C1=NNc1ccc(S(N)(=O)=O)cc1 | Alpha-amylase | enzyme activity, inhibitor, glucose oxidase |  | 200 µg/mL, added: dextrin |  | 13.1%
O=c1cc(NCCCCCCO)[nH]c(=O)[nH]1 | FFAR4 | antagonist, β-arrestin recruitment | CHO cells | 10 µM, added: 4 µM TUG-891 |  | 13 ± 1%
CC1=NN(c2ccc(Cl)cc2)C(=O)C1=NNc1ccc(S(N)(=O)=O)cc1 | Alpha-amylase | enzyme activity, inhibitor, glucose oxidase |  | 100 µg/mL, added: dextrin |  | 9.02%
O=c1cc(NCCc2c[nH]c3ccccc23)[nH]c(=O)[nH]1 | FFAR4 | antagonist, β-arrestin recruitment | CHO cells | 10 µM, added: 4 µM TUG-891 |  | 14 ± 6%
Cc1nn(-c2nc3c(F)cc(F)cc3s2)c(O)c1C(c1ccccc1C(F)(F)F)c1c(C)nn(-c2nc3c(F)cc(F)cc3s2)c1O | Cyclic GMP-AMP synthase, catalytic domain; with DNA (CGAS, Homo sapiens, UniProt Q8N884) | cGAS phase separation, inhibitor |  | 100 µM |  | 90.1%

Excerpt of the above:
Structure (SMILES) | target | assay | test system | setting | how to read | inhibition
Cn1cnc(Br)c1C1=CN(c2ncnc3[nH]cnc23)CCS1 | Protein kinase C gamma type (PRKCG, Homo sapiens, UniProt P05129) | enzyme activity |  | 2 µM |  | 91.7%
CC1=NCCNC(=O)C1=NNc1ccc(S(N)(=O)=O)cc1 | Alpha-amylase | enzyme activity, inhibitor, glucose oxidase |  | 200 µg/mL, added: dextrin |  | 14%
O=C(Nc1cccc2c(=O)cc(-c3nnn[nH]3)oc12)c1ccc(OCCCCc2ccccc2)cc1 | Volume-regulated anion channel subunit LRRC8C, part LRRC8A IL1 chimera (LRRC8C, Homo sapiens, UniProt Q8TDW0, L136K) | ion current, inhibitor, whole-cell patch clamp | HCT LRRC8-/- cells | 1 µM, -100 mV |  | 66.1% and 51.7% and 67.5% and 71.7% and 70.7%
CC1=NOC(=O)C1=NNc1ccc(S(N)(=O)=O)cc1 | Alpha-amylase | enzyme activity, inhibitor, glucose oxidase |  | 500 µg/mL, added: dextrin |  | 36.3%
O=Nc1c(NCCc2ccccc2)[nH]c(=O)[nH]c1=O | FFAR4 | antagonist, β-arrestin recruitment | CHO cells | 10 µM |  | 19 ± 8%
